{"data": "Experimental data gathered from unrelated publications", "note": "Numbered parts are unrelated; each lists some results of a single study."}
{"data": "Set 1", "target": "Eukaryotic initiation factor 4A-I (EIF4A1, Homo sapiens, UniProt P60842, residues 1-406, full length assumed)", "technique": "RNA Bind-n-Seq", "molecule type": "RNA", "sample": "in vitro", "concentration": "15 pmol", "notes": "4-mer, random 30-nt RNA, single round", "together with": "3 µM DMDA-PatA, 2 mM AMP-PNP", "baseline": "input library", "direction": "higher = stronger binding", "UniProt P60842, sequence (whole entry, looked up)": "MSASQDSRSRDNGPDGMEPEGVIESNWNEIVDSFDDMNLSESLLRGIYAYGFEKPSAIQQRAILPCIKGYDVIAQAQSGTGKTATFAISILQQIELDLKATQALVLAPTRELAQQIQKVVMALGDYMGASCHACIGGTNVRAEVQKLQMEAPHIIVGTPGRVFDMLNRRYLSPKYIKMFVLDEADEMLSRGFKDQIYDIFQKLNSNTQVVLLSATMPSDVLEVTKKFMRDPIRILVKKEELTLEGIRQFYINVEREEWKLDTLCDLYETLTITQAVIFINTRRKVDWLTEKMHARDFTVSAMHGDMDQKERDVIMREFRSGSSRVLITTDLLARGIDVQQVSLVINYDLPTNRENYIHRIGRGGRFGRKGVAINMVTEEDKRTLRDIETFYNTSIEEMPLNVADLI"}
{"Sequence": "CGCU", "4-mer enrichment [fold]": 0.879}
{"Sequence": "UUCG", "4-mer enrichment [fold]": 1.27}
{"Sequence": "GCGU", "4-mer enrichment [fold]": 1.14}
{"Sequence": "CGAU", "4-mer enrichment [fold]": 1.03}
{"Sequence": "AAGU", "4-mer enrichment [fold]": 1.34}
{"Sequence": "GUCA", "4-mer enrichment [fold]": 0.533}
{"Sequence": "AGGA", "4-mer enrichment [fold]": 0.901}
{"Sequence": "CUUG", "4-mer enrichment [fold]": 0.849}
{"data": "Set 2", "target": "Prothrombin, mature alpha-thrombin (F2, Homo sapiens, UniProt P00734)", "technique": "aptamer microarray, sandwich", "molecule type": "DNA with 2'F-ANA", "sample": "in vitro", "concentration": "200 nM", "notes": "whole 15-mer aptamer, many near background", "together with": "Cy3 exosite-II aptamer, 400 nM", "direction": "higher = stronger binding", "sequence": "GGTTGGTGTGGTTGG"}
{"Modification": "2'F-ANA at 4 7 8 10", "mean fluorescence intensity": "109 a.u."}
{"Modification": "2'F-ANA at 1 2 3 6 8 9 10 11 12 13", "mean fluorescence intensity": "74.3 a.u."}
{"Modification": "2'F-ANA at 2 3 5 9 10 11 14", "mean fluorescence intensity": "64.2 a.u."}
{"Modification": "2'F-ANA at 1 3 6 7 11 12 13", "mean fluorescence intensity": "353 a.u."}
{"Modification": "2'F-ANA at 1 4 11 12 13 14 15", "mean fluorescence intensity": "56 a.u."}
{"Modification": "2'F-ANA at 2 4 5 6 10 11 12 13 14 15", "mean fluorescence intensity": "45.9 a.u."}
{"Modification": "2'F-ANA at 1 3 4 5 8 13 14 15", "mean fluorescence intensity": "59.3 a.u."}
{"Modification": "2'F-ANA at 3 4 5 9 10 11 13 15", "mean fluorescence intensity": "70 a.u."}
{"data": "Set 3", "target": "Histone acetyltransferase KAT6A, winged helix 1, GST fusion (KAT6A, Homo sapiens, UniProt Q92794, residues 1-85)", "technique": "protein binding microarray", "molecule type": "double-stranded DNA, one strand shown", "sample": "in vitro", "concentration": "not given", "notes": "8-mer, flanks averaged, mean of 2 arrays, mostly near background", "baseline": "not given", "direction": "higher = stronger binding", "Target sequence (chain)": "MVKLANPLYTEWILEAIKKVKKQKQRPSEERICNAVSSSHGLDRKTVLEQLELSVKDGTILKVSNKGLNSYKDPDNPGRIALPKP"}
{"Sequence": "CGGGTACA", "E-score": 0.328}
{"Sequence": "AATAATGG", "E-score": 0.0109}
{"Sequence": "ATCGCTCG", "E-score": 0.147}
{"Sequence": "CCCGGCCG", "E-score": 0.446}
{"Sequence": "AGGACAAT", "E-score": -0.197}
{"Sequence": "AACATGCC", "E-score": 0.217}
{"Sequence": "GACCGCCC", "E-score": 0.32}
{"Sequence": "CCTCGCTC", "E-score": 0.0811}
{"data": "Single results of other studies"}
{"SMILES": "Cc1nc2c(s1)CN(C(=O)CNS(=O)(=O)c1ccc(Oc3ccccc3)cc1)CC2", "test system": "mouse, microsomes or S9", "conditions": "2 µM, 0.5 h", "endpoint": "remaining compound", "result": "2.75%"}
